Results gathered from unrelated publications.
Parts stem from different laboratories: compare values within a part only.
Chain of UniProt O43353 (whole entry, looked up): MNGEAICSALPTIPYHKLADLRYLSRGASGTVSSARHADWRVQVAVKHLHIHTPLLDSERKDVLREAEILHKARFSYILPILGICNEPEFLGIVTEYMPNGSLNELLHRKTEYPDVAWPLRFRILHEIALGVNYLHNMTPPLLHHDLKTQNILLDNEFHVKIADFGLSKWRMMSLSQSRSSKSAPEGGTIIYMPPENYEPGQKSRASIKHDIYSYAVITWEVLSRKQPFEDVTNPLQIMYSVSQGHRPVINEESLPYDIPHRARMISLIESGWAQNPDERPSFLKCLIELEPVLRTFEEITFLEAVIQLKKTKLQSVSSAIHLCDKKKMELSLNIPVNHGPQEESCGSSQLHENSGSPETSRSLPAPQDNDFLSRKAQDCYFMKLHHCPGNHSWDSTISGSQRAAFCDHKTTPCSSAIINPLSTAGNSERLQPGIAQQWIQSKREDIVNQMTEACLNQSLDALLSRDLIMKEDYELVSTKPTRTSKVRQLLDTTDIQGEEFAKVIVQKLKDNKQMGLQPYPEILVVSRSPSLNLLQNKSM
Chain of UniProt P35916 (whole entry, looked up): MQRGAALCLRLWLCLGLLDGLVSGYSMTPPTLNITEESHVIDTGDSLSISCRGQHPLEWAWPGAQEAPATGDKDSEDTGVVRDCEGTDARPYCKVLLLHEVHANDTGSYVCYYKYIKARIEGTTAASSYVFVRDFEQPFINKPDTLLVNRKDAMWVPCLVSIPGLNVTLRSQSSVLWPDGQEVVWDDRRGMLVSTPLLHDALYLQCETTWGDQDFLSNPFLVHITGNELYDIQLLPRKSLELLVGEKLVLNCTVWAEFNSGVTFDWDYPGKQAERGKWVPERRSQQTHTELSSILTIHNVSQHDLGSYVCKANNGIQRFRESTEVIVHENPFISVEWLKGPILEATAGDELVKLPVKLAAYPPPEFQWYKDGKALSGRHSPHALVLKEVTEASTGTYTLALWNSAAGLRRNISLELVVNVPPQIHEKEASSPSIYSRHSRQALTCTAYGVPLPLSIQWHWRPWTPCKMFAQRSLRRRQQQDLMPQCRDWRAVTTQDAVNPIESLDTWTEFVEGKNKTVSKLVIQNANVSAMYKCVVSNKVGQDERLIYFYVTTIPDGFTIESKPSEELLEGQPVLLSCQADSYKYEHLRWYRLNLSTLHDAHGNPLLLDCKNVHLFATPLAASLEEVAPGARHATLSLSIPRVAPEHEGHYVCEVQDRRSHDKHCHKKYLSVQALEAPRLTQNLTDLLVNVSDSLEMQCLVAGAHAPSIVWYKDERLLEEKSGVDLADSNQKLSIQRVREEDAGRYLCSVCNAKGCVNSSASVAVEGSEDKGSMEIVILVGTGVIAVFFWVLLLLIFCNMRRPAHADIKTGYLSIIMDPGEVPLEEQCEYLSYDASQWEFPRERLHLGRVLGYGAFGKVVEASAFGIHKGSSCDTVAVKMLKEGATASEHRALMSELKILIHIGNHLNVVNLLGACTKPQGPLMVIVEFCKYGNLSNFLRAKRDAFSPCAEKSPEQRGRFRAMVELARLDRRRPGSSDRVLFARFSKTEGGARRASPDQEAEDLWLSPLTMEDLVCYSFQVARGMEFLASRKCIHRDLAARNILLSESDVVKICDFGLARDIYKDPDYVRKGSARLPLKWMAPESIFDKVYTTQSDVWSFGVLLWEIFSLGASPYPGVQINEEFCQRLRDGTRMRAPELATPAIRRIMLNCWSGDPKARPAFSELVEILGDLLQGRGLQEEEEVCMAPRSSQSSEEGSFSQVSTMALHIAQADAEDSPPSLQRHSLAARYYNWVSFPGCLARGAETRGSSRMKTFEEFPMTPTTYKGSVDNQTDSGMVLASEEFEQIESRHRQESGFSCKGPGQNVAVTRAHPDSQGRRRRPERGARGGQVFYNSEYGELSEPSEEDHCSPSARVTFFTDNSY
Chain of UniProt O75716 (whole entry, looked up): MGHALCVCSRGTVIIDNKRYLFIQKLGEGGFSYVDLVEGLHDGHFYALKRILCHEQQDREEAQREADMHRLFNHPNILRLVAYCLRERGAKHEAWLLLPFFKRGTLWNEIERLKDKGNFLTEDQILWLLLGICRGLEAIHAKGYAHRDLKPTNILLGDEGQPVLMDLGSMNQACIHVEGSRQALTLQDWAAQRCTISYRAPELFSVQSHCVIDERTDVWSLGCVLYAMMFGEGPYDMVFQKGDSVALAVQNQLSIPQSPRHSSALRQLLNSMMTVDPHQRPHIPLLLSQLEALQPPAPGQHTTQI
Chain of UniProt P15056 (whole entry, unmodified, looked up): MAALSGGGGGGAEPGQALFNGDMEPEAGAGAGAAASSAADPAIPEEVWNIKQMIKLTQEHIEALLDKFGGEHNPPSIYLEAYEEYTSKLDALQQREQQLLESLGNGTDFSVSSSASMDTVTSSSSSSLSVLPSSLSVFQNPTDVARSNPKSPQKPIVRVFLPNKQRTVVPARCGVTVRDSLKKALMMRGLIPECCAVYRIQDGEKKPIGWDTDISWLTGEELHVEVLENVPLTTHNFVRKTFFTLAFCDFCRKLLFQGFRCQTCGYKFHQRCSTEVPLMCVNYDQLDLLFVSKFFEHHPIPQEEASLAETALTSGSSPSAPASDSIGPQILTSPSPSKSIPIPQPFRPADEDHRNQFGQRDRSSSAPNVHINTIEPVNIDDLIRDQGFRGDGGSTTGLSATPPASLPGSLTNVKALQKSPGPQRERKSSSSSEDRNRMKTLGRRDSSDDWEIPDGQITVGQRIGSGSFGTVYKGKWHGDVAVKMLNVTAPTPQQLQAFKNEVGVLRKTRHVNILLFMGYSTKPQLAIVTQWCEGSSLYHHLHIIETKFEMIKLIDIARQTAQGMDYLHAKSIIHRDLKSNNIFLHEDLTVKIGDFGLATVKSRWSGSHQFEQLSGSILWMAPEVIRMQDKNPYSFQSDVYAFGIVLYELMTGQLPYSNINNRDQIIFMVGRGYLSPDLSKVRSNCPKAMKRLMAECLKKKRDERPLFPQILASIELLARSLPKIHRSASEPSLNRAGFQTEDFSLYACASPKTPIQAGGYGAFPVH
Chain of UniProt Q5VT25 (whole entry, looked up): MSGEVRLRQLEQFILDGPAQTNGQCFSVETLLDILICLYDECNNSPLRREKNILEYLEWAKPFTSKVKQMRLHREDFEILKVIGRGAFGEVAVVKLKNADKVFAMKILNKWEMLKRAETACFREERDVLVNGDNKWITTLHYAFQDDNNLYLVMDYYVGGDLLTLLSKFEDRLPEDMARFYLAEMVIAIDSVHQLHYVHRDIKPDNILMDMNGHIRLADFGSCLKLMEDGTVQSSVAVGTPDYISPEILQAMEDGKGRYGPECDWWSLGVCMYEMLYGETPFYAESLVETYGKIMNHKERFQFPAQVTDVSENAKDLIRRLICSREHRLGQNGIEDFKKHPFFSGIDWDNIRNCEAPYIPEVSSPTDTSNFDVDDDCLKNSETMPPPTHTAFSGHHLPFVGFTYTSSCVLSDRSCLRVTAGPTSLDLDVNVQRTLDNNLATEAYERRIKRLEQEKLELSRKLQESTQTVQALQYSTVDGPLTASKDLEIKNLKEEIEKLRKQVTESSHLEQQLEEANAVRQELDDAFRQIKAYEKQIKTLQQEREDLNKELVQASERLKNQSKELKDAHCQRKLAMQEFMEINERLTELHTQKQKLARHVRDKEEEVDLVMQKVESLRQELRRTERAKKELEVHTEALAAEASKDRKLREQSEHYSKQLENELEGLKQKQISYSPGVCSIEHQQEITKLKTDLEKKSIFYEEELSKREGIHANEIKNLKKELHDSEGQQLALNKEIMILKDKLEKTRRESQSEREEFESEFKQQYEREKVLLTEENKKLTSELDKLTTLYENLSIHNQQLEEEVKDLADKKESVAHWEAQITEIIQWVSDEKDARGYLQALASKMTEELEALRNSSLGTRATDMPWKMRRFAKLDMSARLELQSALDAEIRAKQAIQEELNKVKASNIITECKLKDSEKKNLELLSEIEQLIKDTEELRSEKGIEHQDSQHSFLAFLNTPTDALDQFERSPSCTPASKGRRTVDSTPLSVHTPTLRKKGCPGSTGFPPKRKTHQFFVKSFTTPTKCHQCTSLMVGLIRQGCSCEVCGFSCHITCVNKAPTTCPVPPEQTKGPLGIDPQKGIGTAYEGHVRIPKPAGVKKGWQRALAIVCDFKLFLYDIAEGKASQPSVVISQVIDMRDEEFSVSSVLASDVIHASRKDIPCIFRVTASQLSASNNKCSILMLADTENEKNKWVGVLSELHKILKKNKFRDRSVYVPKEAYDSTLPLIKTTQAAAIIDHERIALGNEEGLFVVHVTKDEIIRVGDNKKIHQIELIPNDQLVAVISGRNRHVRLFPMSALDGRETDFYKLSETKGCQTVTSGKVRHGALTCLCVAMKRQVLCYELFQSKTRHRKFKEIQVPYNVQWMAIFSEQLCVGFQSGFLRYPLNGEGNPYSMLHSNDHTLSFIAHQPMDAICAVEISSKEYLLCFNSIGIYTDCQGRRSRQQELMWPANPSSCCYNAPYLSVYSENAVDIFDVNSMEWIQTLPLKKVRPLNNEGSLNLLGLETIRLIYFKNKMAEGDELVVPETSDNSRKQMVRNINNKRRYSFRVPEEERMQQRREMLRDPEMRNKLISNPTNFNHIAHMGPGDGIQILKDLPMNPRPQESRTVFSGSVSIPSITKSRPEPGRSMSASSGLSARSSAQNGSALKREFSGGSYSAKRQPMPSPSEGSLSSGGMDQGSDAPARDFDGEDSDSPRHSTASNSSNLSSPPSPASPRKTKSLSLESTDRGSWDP
Chain of UniProt P48729 (whole entry, looked up): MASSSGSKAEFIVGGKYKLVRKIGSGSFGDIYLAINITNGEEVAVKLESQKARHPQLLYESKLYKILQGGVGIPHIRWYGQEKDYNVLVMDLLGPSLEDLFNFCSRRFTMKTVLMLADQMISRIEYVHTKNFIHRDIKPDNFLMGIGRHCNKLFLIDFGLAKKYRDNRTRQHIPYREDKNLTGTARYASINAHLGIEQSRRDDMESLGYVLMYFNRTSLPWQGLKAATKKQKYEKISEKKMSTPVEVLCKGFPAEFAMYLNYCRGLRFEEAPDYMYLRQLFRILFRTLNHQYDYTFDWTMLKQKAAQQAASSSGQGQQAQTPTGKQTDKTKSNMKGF

Set 1 — cell line: HaCaT; concentration: 100 µM; time: 60 h
For O=C(Nc1cccc2c(=O)cc(-c3nnn[nH]3)oc12)c1ccc(OCCCCc2ccccc2)cc1, the viability was 78.5%.
The viability of COc1cc([C@@H]2c3cc4c(cc3[C@@H](O[C@@H]3O[C@@H]5CO[C@@H](c6cccs6)O[C@H]5[C@H](O)[C@H]3O)[C@H]3COC(=O)[C@H]23)OCO4)cc(OC)c1O is reported as 16.5%.
The viability of O=C(NC[C@H]1CN(c2ccc(N3CCOCC3=O)cc2)C(=O)O1)c1ccc(Cl)s1 is reported as 117%.
The viability of CC[C@H](C)[C@H](N)C(=O)O is reported as 144%.
With C[C@]12C=CC(=O)C=C1CC[C@@H]1[C@@H]2[C@@H](O)C[C@@]2(C)[C@H]1CC[C@]2(O)C(=O)CO the viability was 146%.
CCOC(=O)Nc1ccc(NCc2ccc(F)cc2)nc1N has a viability of 118%.
With COc1ccc2cc1Oc1ccc(cc1)C[C@H]1c3cc(c(OC)cc3CCN1C)Oc1c(OC)c(OC)cc3c1[C@H](C2)N(C)CC3 the viability was 14.2%.
The viability of c1ccc(-c2ccc(C(c3ccccc3)n3ccnc3)cc2)cc1 (stereo not drawn) is reported as 14.8%.
With C[C@]12CC[C@@H]3c4ccc(O)cc4C[C@@H](CCCCCCCCC[S+]([O-])CCCC(F)(F)C(F)(F)F)[C@H]3[C@@H]1CC[C@@H]2O (stereo partly drawn) the viability was 150%.

Set 2 — method: competition with immobilised ligand; concentration: 1 µM
Structure (SMILES): CC(=O)Nc1c(C(C)=O)c(=O)n(C)c2nc(-c3ccc(Cl)cc3Cl)c(-c3ccc(Cl)cc3)cc12
For PRKACA (Homo sapiens, UniProt P17612); cell-free assay: remaining binding read 100%.
The remaining binding was 48% (PIK3C2B (Homo sapiens, UniProt O00750); binding).
CDK4 (Homo sapiens, UniProt P11802); cell-free assay — remaining binding: 87%.
For MAPK4 (Homo sapiens, UniProt P31152); cell-free assay: remaining binding read 79%.
FLT4 (Homo sapiens, UniProt P35916); cell-free assay — remaining binding: 100%.
The remaining binding was 89% (Tyrosine-protein kinase ABL1, non-phosphorylated (ABL1, Homo sapiens, UniProt P00519, T315I); cell-free assay).
PRKACB (Homo sapiens, UniProt P22694); cell-free assay — remaining binding: 100%.
ANKK1 (Homo sapiens, UniProt Q8NFD2); cell-free assay — remaining binding: 100%.
The remaining binding was 100% (PAK5 (Homo sapiens, UniProt Q9P286); cell-free assay).
It gave 85% for remaining binding (PIK3CA (Homo sapiens, UniProt P42336, E545A); cell-free assay).
For PLK3 (Homo sapiens, UniProt Q9H4B4); cell-free assay: remaining binding read 100%.
MAP3K5 (Homo sapiens, UniProt Q99683); cell-free assay — remaining binding: 100%.
LATS1 (Homo sapiens, UniProt O95835); cell-free assay — remaining binding: 98%.
It gave 100% for remaining binding (CDC42BPA (Homo sapiens, UniProt Q5VT25); cell-free assay).
The remaining binding was 100% (EPHA2 (Homo sapiens, UniProt P29317); cell-free assay).
The remaining binding was 100% (RIPK2 (Homo sapiens, UniProt O43353); cell-free assay).
SYK (Homo sapiens, UniProt P43405); cell-free assay — remaining binding: 96%.

Set 3 — observed: enzyme activity; concentration: 10 µM
Structure (SMILES): Cc1sc(C(=O)NC2COC2)cc1-n1cc(NC(=O)Nc2c(F)cccc2Cl)cn1
For PAK3 (Homo sapiens, UniProt O75914); relative to: untreated control: remaining activity read 109%.
The remaining activity was 80.2% (CSNK1A1 (Homo sapiens, UniProt P48729); relative to: untreated control).
For MAP3K2 (Homo sapiens, UniProt Q9Y2U5); relative to: untreated control: remaining activity read 88.1%.
For KSR2 (Homo sapiens, UniProt Q6VAB6); inhibitor: remaining activity read 99.2%.
It gave 100% for remaining activity (MELK (Homo sapiens, UniProt Q14680); relative to: untreated control).
For STK16 (Homo sapiens, UniProt O75716); relative to: untreated control: remaining activity read 94.3%.

Set 4 — mode: inhibitor; concentration: 5 µM
SMILES: COc1cc(C(=O)N2CCC(N3CCN(C)CC3)CC2)ccc1Nc1ncc2c(n1)N(C)c1ccccc1C(=O)N2C
BRAF (Homo sapiens, UniProt P15056, G469E); cell-based kinome profiling; human cells; relative to: vehicle control — “log2 fold change”: -0.056.
For Protein kinase C eta type, with CDC37 (PRKCH, Homo sapiens, UniProt P24723); cell-based kinome screen; human cells; relative to: untreated control: “log2 fold change” read -0.008.
CAMK2B (Homo sapiens, UniProt Q13554); cell-based kinome profiling; human cells; relative to: vehicle control — “log2 fold change”: -0.345.
It gave 0.316 for “log2 fold change” (CDK18 (Homo sapiens, UniProt Q07002); human cells; relative to: vehicle).

For quick reference, copied from above (set 3):
For KSR2 (Homo sapiens, UniProt Q6VAB6); inhibitor: remaining activity read 99.2%.
It gave 100% for remaining activity (MELK (Homo sapiens, UniProt Q14680); relative to: untreated control).
For STK16 (Homo sapiens, UniProt O75716); relative to: untreated control: remaining activity read 94.3%.
